Results pooled from the literature.
Numbered parts are unrelated; each lists some results of a single study.
UniProt P62344, sequence (whole entry, looked up): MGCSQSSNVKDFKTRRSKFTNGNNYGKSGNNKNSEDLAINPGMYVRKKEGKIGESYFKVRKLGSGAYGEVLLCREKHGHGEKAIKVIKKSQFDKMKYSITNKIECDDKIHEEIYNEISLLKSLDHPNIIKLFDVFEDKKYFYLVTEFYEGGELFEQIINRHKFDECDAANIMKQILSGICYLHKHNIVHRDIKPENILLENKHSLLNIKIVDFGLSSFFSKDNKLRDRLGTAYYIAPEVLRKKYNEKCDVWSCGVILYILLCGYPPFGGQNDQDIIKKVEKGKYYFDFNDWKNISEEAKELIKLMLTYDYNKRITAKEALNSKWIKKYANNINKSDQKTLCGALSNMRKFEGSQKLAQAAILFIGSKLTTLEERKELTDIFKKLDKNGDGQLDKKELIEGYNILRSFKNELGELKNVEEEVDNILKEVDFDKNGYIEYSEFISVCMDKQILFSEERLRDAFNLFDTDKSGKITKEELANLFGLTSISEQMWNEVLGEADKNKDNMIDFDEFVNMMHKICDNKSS
UniProt P9WI81, sequence (whole entry, looked up): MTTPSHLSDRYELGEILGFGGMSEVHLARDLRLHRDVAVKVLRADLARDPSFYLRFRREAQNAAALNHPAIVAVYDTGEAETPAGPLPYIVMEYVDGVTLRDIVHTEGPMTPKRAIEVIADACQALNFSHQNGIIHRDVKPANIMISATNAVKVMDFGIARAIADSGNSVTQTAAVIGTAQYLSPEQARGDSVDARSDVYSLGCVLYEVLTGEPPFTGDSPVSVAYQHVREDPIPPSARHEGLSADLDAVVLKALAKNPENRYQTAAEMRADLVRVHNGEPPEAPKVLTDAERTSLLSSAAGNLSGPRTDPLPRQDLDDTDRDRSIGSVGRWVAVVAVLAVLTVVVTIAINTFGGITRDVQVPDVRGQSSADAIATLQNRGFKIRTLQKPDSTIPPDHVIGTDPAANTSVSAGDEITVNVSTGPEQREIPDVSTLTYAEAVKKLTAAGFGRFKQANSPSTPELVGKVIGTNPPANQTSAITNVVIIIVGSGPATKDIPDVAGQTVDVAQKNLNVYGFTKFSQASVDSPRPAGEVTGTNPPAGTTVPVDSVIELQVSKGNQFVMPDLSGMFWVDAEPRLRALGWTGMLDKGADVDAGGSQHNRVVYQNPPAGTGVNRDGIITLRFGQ
UniProt P61075, sequence (whole entry, looked up): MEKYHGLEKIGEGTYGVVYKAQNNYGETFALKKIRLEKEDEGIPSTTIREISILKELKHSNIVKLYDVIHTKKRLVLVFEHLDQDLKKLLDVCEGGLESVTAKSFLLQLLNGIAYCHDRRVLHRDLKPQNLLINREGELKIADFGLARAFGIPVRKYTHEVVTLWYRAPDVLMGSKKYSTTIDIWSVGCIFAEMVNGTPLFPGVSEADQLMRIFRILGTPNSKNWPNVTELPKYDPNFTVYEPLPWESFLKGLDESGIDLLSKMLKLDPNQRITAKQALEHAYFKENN

Sample 1
Organism: Vesicular stomatitis virus
Effect on: pseudovirus infection
Method: FDA-approved drug library screen
Tested at: concentration not given
Setting: VSV-G control pseudotype
Relative to: vehicle
Structure (SMILES) | GFP-positive cells
Nc1ncn([C@@H]2O[C@H](CO)[C@@H](O)[C@H]2O)c(=O)n1 | 61.8%
COc1ccc2[n-]c([S@@+]([O-])Cc3ncc(C)c(OC)c3C)nc2c1.[Na+] | 116%
CC(C)[N+]1(C)[C@@H]2CC[C@H]1C[C@@H](OC(=O)C(CO)c1ccccc1)C2.O.[Br-] (some centres unmarked) | 103%
Cc1cccc(CN2CCN(C(c3ccccc3)c3ccc(Cl)cc3)CC2)c1.Cl.Cl (centres unmarked) | 119%
NC[C@H]1CC[C@H](C(=O)O)CC1 | 88.8%
CN1CCN(C2=Nc3ccccc3Oc3ccc(Cl)cc32)CC1.O=C(O)CCC(=O)O | 112%
CC(=O)[C@@]1(O)CC[C@H]2[C@@H]3CCC4=CC(=O)CC[C@]4(C)[C@H]3CC[C@@]21C | 105%
Cc1cn(-c2cc(NC(=O)c3ccc(C)c(Nc4nccc(-c5cccnc5)n4)c3)cc(C(F)(F)F)c2)cn1 | 86.2%
NC[C@@H]1O[C@H](O[C@H]2[C@@H](O)[C@H](O[C@@H]3[C@@H](O)[C@H](N)C[C@H](N)[C@H]3O[C@H]3O[C@H](CN)[C@@H](O)[C@H](O)[C@H]3N)O[C@@H]2CO)[C@H](N)[C@@H](O)[C@@H]1O.O=S(=O)(O)O | 81.6%
Nc1nc(N)c2nc(-c3ccccc3)c(N)nc2n1 | 94%
O=C([O-])C1=C(CSc2nnnn2CS(=O)(=O)[O-])CS[C@@H]2[C@H](NC(=O)[C@H](O)c3ccccc3)C(=O)N12.[Na+].[Na+] | 129%
Nc1ccc(S(=O)(=O)c2ccc(N)cc2)cc1 | 69%
CCn1cc(C(=O)O)c(=O)c2cc(F)c(N3CCNCC3)nc21.CCn1cc(C(=O)O)c(=O)c2cc(F)c(N3CCNCC3)nc21.O.O.O | 103%
Cl.N=C(N)N | 110%
C[C@@H]1CCN(C(=O)CC#N)C[C@@H]1N(C)c1ncnc2[nH]ccc12.O=C(O)CC(O)(CC(=O)O)C(=O)O | 124%
COc1cc2ncnc(Nc3ccc(F)c(Cl)c3)c2cc1OCCCN1CCOCC1 | 111%

Sample 2
Structure (SMILES): COc1cc(C(=O)OCCCN2CCCN(CCCOC(=O)c3cc(OC)c(OC)c(OC)c3)CC2)cc(OC)c1OC
Host: male CD-1 mouse
Route: subcutaneous
Dose: dose not given
test system | conditions | tissue concentration
trigeminal ganglion | 0.1667 h | 116 ng/mL
dorsal root ganglia | 0.5 h | 481 ng/mL
dorsal root ganglia | 4.5 h | 33.7 ng/mL
trigeminal ganglion | 1.5 h | 525 ng/mL
trigeminal ganglion | 0.5 h | 287 ng/mL
trigeminal ganglion | 8 h | 2.8 ng/mL
dorsal root ganglia | 1.5 h | 369 ng/mL
dorsal root ganglia | 8 h | 6.89 ng/mL

Sample 3
Organism: Sarcocystis neurona
Effect on: parasite growth
Tested at: 10 µM
Time: 96 h
Setting: secondary screen
SMILES | inhibition
NC(=O)C[S+]([O-])C(c1ccccc1)c1ccccc1 (centres unmarked) | -10.9%
O=C1CN=C(c2ccccc2)c2cc([N+](=O)[O-])ccc2N1 | -34.1%
CC(NC(C)(C)C)C(=O)c1cccc(Cl)c1 (centres unmarked) | -0.7%
COc1ccc(C(CN(C)C)C2(O)CCCCC2)cc1 (centres unmarked) | -25.2%
C=C1C[C@@H]2[C@H](CC[C@]3(C)C(=O)CC[C@@H]23)[C@@]2(C)C=CC(=O)C=C12 | -23%
CN1C(=O)CN=C(c2ccccc2)c2cc([N+](=O)[O-])ccc21 | -15.5%
Cc1ncc2n1-c1ccc(Cl)cc1C(c1ccccc1F)=NC2 | -13.7%
CNCC(O)c1ccc(O)cc1 (centres unmarked) | -17.3%
C[C@]12C/C(=C/O)C(=O)C[C@@H]1CC[C@@H]1[C@@H]2CC[C@@]2(C)[C@H]1CC[C@]2(C)O | -20.9%
Cc1nnc2n1-c1ccc(Cl)cc1C(c1ccccc1)=NC2 | -10%

Single results of other studies
SMILES | target or system | assay | conditions | how to read | quantity | result
CNC(=O)Nc1ccc2c(c1)CC[C@@]21OC(=O)N(CC(=O)N(Cc2ccc(F)cc2)[C@@H](C)C(F)(F)F)C1=O | Serine/threonine-protein kinase PknB (pknB, Mycobacterium tuberculosis, UniProt P9WI81) | cell-free assay, competition with immobilised ligand | 1 µM |  | remaining binding | 83%
Cc1cc(NC(=O)c2cccc(S(F)(F)(F)(F)F)c2)cc(-n2ccn3nc(-c4cccnc4)cc23)c1 | sample E normal colon organoid | CellTiter-Glo | 1 µM, 4 days | relative to: DMSO | viability | 116%
O=C(NC[C@@H]1[C@H]2CN(C(=O)OCc3cc(C(F)(F)F)cc(C(F)(F)F)c3)C[C@@H]12)c1ccc2[nH]nnc2c1 | Cyclin-dependent kinase 2 homolog (CRK2, Plasmodium falciparum, UniProt P61075) | cell-free assay, competition with immobilised ligand | 1 µM |  | remaining binding | 100%
Cn1cc(Cl)c2c(Oc3c(F)cc(Nc4cc(Cl)nc(N)n4)cc3F)ccnc21 | Calcium-dependent protein kinase 1 (CDPK1, Plasmodium falciparum, UniProt P62344) | cell-free assay, competition with immobilised ligand | 0.1 µM |  | remaining binding | 88%

For quick reference, copied from above (sample 3):
SMILES | inhibition
CN1C(=O)CN=C(c2ccccc2)c2cc([N+](=O)[O-])ccc21 | -15.5%
Cc1ncc2n1-c1ccc(Cl)cc1C(c1ccccc1F)=NC2 | -13.7%
CNCC(O)c1ccc(O)cc1 (centres unmarked) | -17.3%
